# Experimental data collected from several papers.
# Numbered parts are unrelated; each lists some results of a single study. Positions count from the first letter of the parent shown.
# Sequence of UniProt Q9P0L2 (whole entry, looked up): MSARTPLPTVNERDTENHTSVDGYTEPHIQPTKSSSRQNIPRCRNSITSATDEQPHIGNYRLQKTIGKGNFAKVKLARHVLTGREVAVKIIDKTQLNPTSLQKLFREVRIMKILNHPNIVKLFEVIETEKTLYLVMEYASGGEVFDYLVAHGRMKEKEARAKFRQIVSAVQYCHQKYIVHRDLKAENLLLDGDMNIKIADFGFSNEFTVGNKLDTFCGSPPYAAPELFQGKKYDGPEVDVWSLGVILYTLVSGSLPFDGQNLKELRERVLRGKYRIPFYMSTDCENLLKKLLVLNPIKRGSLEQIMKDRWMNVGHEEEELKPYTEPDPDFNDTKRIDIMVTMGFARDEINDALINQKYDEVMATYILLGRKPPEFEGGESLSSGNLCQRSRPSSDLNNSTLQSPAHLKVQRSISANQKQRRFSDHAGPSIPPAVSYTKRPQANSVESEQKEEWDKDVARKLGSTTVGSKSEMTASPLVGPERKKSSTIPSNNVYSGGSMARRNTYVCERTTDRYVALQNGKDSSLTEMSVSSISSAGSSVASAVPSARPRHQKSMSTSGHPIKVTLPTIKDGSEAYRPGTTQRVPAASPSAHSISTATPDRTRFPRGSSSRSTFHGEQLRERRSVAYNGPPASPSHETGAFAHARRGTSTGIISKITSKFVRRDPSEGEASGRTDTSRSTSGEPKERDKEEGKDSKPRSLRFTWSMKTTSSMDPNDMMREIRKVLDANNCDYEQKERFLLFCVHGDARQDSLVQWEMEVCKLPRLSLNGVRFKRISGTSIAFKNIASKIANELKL

# Block 1
# Target: JUNB, bZIP domain (human)
# Method: DHFR protein complementation
# Medium: yeast
# Setting: single substitutions, most at no-binding floor
# Reference: wild-type JUN-FOS pair
# Reading: higher = stronger binding
# Starting sequence: JUN, bZIP domain (human); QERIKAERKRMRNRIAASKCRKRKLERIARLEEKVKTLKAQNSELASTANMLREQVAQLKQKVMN; partner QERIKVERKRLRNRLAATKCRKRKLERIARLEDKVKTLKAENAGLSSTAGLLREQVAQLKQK
Substitution,binding fitness
K36M,-1.22 natural log
R30A,-0.912 natural log
K36V,-1.36 natural log
Q55I,-1.31 natural log
T48V,-1.1 natural log
L31Q,-1.47 natural log
L38Q,-1.51 natural log
L52P,-1.49 natural log

# Block 2
# Target: CCND2, cyclin fold, Cln2 fusion (human)
# Method: yeast growth competition, sequencing
# Medium: yeast
# Setting: weak parent motif
# Reference: not given
# Reading: higher = stronger binding
# Starting sequence: RBL2 docking peptide (human); STTRRRLFVENDS; partner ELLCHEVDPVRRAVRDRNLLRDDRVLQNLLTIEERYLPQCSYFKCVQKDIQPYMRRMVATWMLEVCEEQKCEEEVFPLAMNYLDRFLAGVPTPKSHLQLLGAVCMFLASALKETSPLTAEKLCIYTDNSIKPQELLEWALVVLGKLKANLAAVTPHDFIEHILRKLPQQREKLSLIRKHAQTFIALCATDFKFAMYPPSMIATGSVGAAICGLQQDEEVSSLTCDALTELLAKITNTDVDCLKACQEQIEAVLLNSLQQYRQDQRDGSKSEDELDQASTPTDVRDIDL
Substitution,normalised enrichment score
STTRRRLFVENDD [S13D],0.415
STTRVRLFVENDS [R5V],-0.055
STTRRRLFCENDS [V9C],0.414
STERRRLFVENDS [T3E],-0.211
STTRRRLWVENDS [F8W],-0.0307
STTRRRLHVENDS [F8H],-0.184
STTRRRLFVENHS [D12H],0.139
SQTRRRLFVENDS [T2Q],0.391

# Further values, each from its own experiment
Structure (SMILES),tested on,assay,conditions,scale,endpoint,value
"COc1ccc2c(c1)O[C@@H](c1ccc(OC)c(OC)c1)C[C@H]2NC(=O)C1(c2ccc3c(c2)OC(F)(F)O3)CC1 (single isomer, unassigned)",normal adjacent epithelium organoid sample E,CellTiter-Glo,1 µM,reference: DMSO,viability,77.1%
O=C(O)/C=C/c1cc(Br)c(Br)c(Br)c1Br,"MARK1 (Homo sapiens, UniProt Q9P0L2)","enzyme activity, inhibitor",0.5 µM,reference: control,remaining activity,93.7%

# Repeated from above (block 2):
Substitution,normalised enrichment score
STTRRRLWVENDS [F8W],-0.0307
STTRRRLFVENHS [D12H],0.139
